Measured values gathered from unrelated publications.
Compare with care: the assays were run in different laboratories. ± gives the spread as reported.
rep main protease: Replicase polyprotein 1ab, main protease (rep, Severe acute respiratory syndrome coronavirus 2, UniProt P0DTD1)

Structure (SMILES) = CC(C)C[C@H](NC(=O)c1cc2c(OC(F)(F)F)cccc2[nH]1)C(=O)N[C@@H](C[C@@H]1CCNC1=O)C(=O)c1nc2ccccc2s1; target or system = rep main protease; test = enzyme activity, inhibitor; measurement = IC50; result = 2500 nM
Structure (SMILES) = CC1CC(c2ccc(C(=O)O)cc2F)=NN1c1ccc(C#N)c(Cl)c1 (centres unmarked); target or system = Replicase polyprotein 1ab, methyltransferase (rep, Severe acute respiratory syndrome coronavirus 2, UniProt P0DTD1); test = enzyme activity, inhibitor; measurement = IC50; result = 3980 nM
Structure (SMILES) = Cn1cc(C(=O)Nc2ccccn2)c2ccccc21; target or system = rep main protease; test = enzyme activity, inhibitor, FRET; measurement = IC50; result = 2180 nM
Structure (SMILES) = O=C(CCN(Cc1ccco1)C(=O)c1csc(Nc2ccccc2)n1)NCc1cccc(C(F)(F)F)c1; target or system = rep main protease; test = enzyme activity, inhibitor, FRET; measurement = IC50; result = 140000 nM
Structure (SMILES) = O=C(O[C@@H]1Cc2c(O)cc(O)cc2O[C@@H]1c1ccc(O)c(O)c1)c1cc(O)c(O)c(O)c1; target or system = rep main protease; test = inhibitor; measurement = IC50; result = 5890 ± 120 nM
Structure (SMILES) = Cc1ccc(OCCN(C)C)cc1C(=O)N[C@H](C)c1cc(-c2cccs2)cc(-c2ccc(CN)s2)c1; target or system = Replicase polyprotein 1ab, papain-like protease (rep, Severe acute respiratory syndrome coronavirus 2, UniProt P0DTD1); test = enzyme activity, inhibitor, FRET; measurement = IC50; result = 90.9 nM
Structure (SMILES) = C=CC(=O)N(c1ccc(C(C)(C)C)cc1)C(C(=O)NCCc1cccc(F)c1)c1cccnc1 (centres unmarked); target or system = rep main protease; test = enzyme activity, inhibitor; measurement = IC50; result = 2620 nM
Structure (SMILES) = CNC(=O)C[C@H](Cc1ccc(F)cc1)NC(=O)[C@@H](Cc1ccc(Cl)cc1Cl)NC(=O)[C@H](N)Cc1ccccc1C#N; target or system = rep main protease; test = enzyme activity, inhibitor, fluorescence; measurement = IC50; result = 300 nM
Structure (SMILES) = Nc1ncnc2c1ncn2[C@@H]1O[C@H](CSCc2ccc(Cl)c(C(=O)O)c2)[C@@H](O)[C@H]1O; target or system = Replicase polyprotein 1ab, nsp16 with nsp10 (rep, Severe acute respiratory syndrome coronavirus 2, UniProt P0DTD1); test = methyltransferase activity, inhibitor; conditions = 30 min, 30 °C, together with: SAM 10 µM; measurement = IC50; result = 25 nM
Structure (SMILES) = CN(C)CCCCNC(=O)C[C@H](Cc1ccccc1)NC(=O)[C@@H](Cc1ccc(Cl)cc1Cl)NC(=O)[C@H](N)Cc1ccccc1C#N; target or system = rep main protease; test = enzyme activity, inhibitor, fluorescence; measurement = IC50; result = 30 nM
Structure (SMILES) = Oc1ccc(/C=N/NC(=S)Nc2ccc(Cl)cc2)cc1; target or system = rep main protease; test = enzyme activity, inhibitor, FRET; measurement = IC50; result = 9110 nM
Structure (SMILES) = CC(=O)N[C@@H](Cc1ccc(O)cc1)C(=O)N[C@@H](CCCNC(=N)N)C(=O)N[C@@H](Cc1ccccc1)C(=O)NCCC(=O)N[C@@H](CCCNC(=N)N)C(=O)N[C@@H](CC(N)=O)C(=O)NCCC(=O)N[C@H](C(=O)N[C@@H](Cc1ccccc1)C(=O)NCCC(=O)N[C@@H](Cc1ccccc1)C(=O)N[C@@H](Cc1ccc(O)cc1)C(=O)NCCC(=O)N[C@H](C(=O)N[C@@H](CC(=O)O)C(N)=O)[C@@H](C)O)C(C)C; target or system = rep main protease; test = enzyme activity, inhibitor; measurement = IC50; result = > 17000 nM
Structure (SMILES) = O=c1c2cccc([N+](=O)[O-])c2[se]n1-c1ccccc1; target or system = rep main protease; test = enzyme activity, inhibitor, FRET; measurement = IC50; result = 740 nM
Structure (SMILES) = OCC1OC(Oc2cc3c(O)cc(O)cc3[o+]c2-c2ccc(O)c(O)c2)C(O)C(O)C1O (centres unmarked); target or system = rep main protease; test = enzyme activity, inhibitor; measurement = IC50; result = 65100 nM
Structure (SMILES) = CCCCCCCCCCCCCCCC(=O)N[C@@H](CCC(=O)NCCOCCOCCC(=O)NCCOCCOCCC(=O)NCCCC[C@H](NC(=O)[C@H](CC(=O)O)NC(=O)[C@H](CC(C)C)NC(=O)[C@H](Cc1ccc(O)cc1)NC(=O)[C@H](CCCCN)NC(=O)[C@H](CO)NC(=O)[C@H](Cc1ccc(O)cc1)NC(=O)[C@H](CC(=O)O)NC(=O)[C@H](CO)NC(=O)[C@@H](NC(=O)[C@H](Cc1ccccc1)NC(=O)[C@@H](NC(=O)CNC(=O)[C@H](CCC(N)=O)NC(=O)[C@@H](CO)NC(=O)[C@@H](N)Cc1c[nH]cn1)[C@@H](C)O)[C@@H](C)O)C(=O)N[C@@H](CCCNC(=N)N)C(=O)N[C@@H](CCCNC(=N)N)C(=O)N[C@@H](C)C(=O)N[C@@H](CCC(N)=O)C(=O)N[C@@H](CC(=O)O)C(=O)N[C@@H](Cc1ccccc1)C(=O)N[C@H](C(=O)N[C@@H](CCC(N)=O)C(=O)N[C@@H](Cc1c[nH]c2ccccc12)C(=O)N[C@@H](CC(C)C)C(=O)N[C@@H](CC(C)C)C(=O)N[C@@H](CC(N)=O)C(=O)N[C@H](C(=O)NCC(=O)NCC(=O)N1CCC[C@H]1C(=O)N[C@@H](CO)C(=O)N[C@@H](CO)C(=O)NCC(=O)N[C@@H](C)C(=O)N1CCC[C@H]1C(=O)N1CCC[C@H]1C(=O)N1CCC[C@H]1C(=O)N[C@@H](CO)C(N)=O)[C@@H](C)O)C(C)C)C(=O)O; test system = rhesus monkey, plasma; conditions = subcutaneous, 5 µg/kg, single dose; measurement = MRT; result = 5.68 h
Structure (SMILES) = CCOC(=O)CC[C@H](NC(=O)c1ccccc1[Se][Se]c1ccccc1C(=O)N[C@@H](CCC(=O)OCC)C(=O)OCC)C(=O)OCC; target or system = rep main protease; test = enzyme activity, inhibitor; measurement = IC50; result = 6280 nM
Structure (SMILES) = O=C1CC(c2ccccc2)Oc2cc(O[C@@H]3O[C@H](CO)[C@@H](O)[C@H](O)[C@H]3O)ccc21 (some centres unmarked); target or system = Replicase polyprotein 1ab, nsp13 helicase (rep, Severe acute respiratory syndrome coronavirus 2, UniProt P0DTD1); test = ATPase activity; conditions = no nucleic acid; measurement = IC50; result = > 30000 nM

Repeated from above:
Structure (SMILES) = CNC(=O)C[C@H](Cc1ccc(F)cc1)NC(=O)[C@@H](Cc1ccc(Cl)cc1Cl)NC(=O)[C@H](N)Cc1ccccc1C#N; target or system = rep main protease; test = enzyme activity, inhibitor, fluorescence; measurement = IC50; result = 300 nM
Structure (SMILES) = Cn1cc(C(=O)Nc2ccccn2)c2ccccc21; target or system = rep main protease; test = enzyme activity, inhibitor, FRET; measurement = IC50; result = 2180 nM
Structure (SMILES) = O=c1c2cccc([N+](=O)[O-])c2[se]n1-c1ccccc1; target or system = rep main protease; test = enzyme activity, inhibitor, FRET; measurement = IC50; result = 740 nM
